Assay results collected from several papers.
Each numbered part is a random draw from the data of one study; scales do not carry over between parts.

Study 1 — technique: RNA Bind-n-Seq; molecule type: RNA; matrix: in vitro; concentration: 1 µM; setting: whole 134-nt RNA, ends assumed; together with: 150 mM KCl; relative to: input library; reading: higher = stronger binding
Target: Ras GTPase-activating protein-binding protein 1, RRM domain (G3BP1, Homo sapiens, UniProt Q13283)
UniProt Q13283, sequence (whole entry, looked up): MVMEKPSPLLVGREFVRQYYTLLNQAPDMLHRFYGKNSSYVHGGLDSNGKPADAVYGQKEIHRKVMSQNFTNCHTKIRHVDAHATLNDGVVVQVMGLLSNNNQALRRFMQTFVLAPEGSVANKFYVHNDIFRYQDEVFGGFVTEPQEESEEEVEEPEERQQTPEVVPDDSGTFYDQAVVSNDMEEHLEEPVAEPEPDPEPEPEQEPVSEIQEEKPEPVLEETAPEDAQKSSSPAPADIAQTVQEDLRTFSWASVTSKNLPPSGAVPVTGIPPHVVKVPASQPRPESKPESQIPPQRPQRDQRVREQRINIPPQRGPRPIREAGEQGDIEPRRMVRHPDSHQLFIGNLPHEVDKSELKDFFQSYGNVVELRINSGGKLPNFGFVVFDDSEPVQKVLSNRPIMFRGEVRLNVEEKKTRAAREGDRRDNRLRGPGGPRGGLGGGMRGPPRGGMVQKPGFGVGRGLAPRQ
Shared flanks, not repeated: GGGAGUUCUACAGUCCGACGAUC … UGGAAUUCUCGGGUGUCAAGG
| Strand | log2 enrichment |
| --- | --- |
| AAGUCCUGUGCUACACAUCGUAUGUACCGAAUCGGGGCCCGGGGCCCGGGGCCCGGAAAGUAUUAUGUUACGCCGUUCGGAUCUGCACUU | -1.63 |
| AGUCCUGUGCUACACAUCGUAUGUACCGAAUCGGGUUUUUGGGAGGGUUUUUUUGGGAAAGUAUUAUGUUACGCCGUUCGGAUCUGCACU | 0.263 |
| UGGCCCUGGUGGCAUGCGGGGAGGAAGAGGUGGCCUCAUGGAUCGUGGUGGUCCCGGUGGCAUGUUCAGAGGUGGCCGUGGUGGAGACAG | 1.01 |
| GUCCUGUGCUACACAUCGUAUGUACCGAAUCGGGGUUUUUGGGUUUUUGGGUUUUUGGGAAAGUAUUAUGUUACGCCGUUCGGAUCUGCA | 0.172 |
| CCUGUGCUACACAUCGUAUGUACCGAAUCGGGGUUUUUUUGGGGAGGGGAAAAAAAGGGGAAAGUAUUAUGUUACGCCGUUCGGAUCUGC | 0.229 |
| ACCAUGCAGGUGGGCAUCGUUGGGAAGUGGGGCAAGGGGGGGAUAGGGAGGGGGGUAACACUUUGGGAACAGGUGGUCCCAGGUCGUUUC | -0.451 |
| AGUCCUGUGCUACACAUCGUAUGUACCGAAUCGGGGUUUUUUUGGGGUGGGGAGGGGAAAGUAUUAUGUUACGCCGUUCGGAUCUGCACU | 0.738 |
| UGGGAGGUGGAUUUUGUUUAUUUUUUUAUCUCAUUUCCAGGGGUGGGAAUUUUUUUUUAAUAUGUGUCAUGAAUAAAGUUGUUUUUGAAA | 2.41 |
| GCAGGAAGUAAAAACAAAUGGAAAUGCUUCGGCUAGUGGCAGGGGUGGGGGUUGCUAAGGAAAGGGUGGGAUGGGAGUGGGUAAAGAGUU | 1.08 |

Study 2 — technique: protein binding microarray; molecule type: double-stranded DNA, one strand shown; matrix: in vitro; concentration: not given; relative to: not given; reading: higher = stronger binding
Target: Histone acetyltransferase KAT6A, winged helix 1, GST fusion (KAT6A, Homo sapiens, UniProt Q92794, residues 1-85)
Setting: 8-mer, flanks averaged, mean of 2 arrays, mostly near background
Construct (chain): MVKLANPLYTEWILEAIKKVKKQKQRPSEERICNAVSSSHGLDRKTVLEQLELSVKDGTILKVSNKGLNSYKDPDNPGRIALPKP
| Strand | E-score |
| --- | --- |
| TCCAGAAA | -0.192 |
| CAGGTCTA | -0.277 |
| ATGGGAGA | -0.31 |
| AACATATA | -0.209 |
| TAGCTAGA | -0.171 |
| TGCTGCAA | -0.229 |
| CCAATCAG | -0.309 |
| TGGGCCAA | -0.197 |
| GTTAACAA | 0.0286 |
| ACTGAGCG | 0.162 |
| TCCCGTAA | 0.242 |
| AAACGCCT | 0.0192 |
| AATCATGC | -0.00427 |
| GCCCGTCA | 0.37 |
| CTCGTCGC | 0.0955 |
| AAATGCAT | -0.172 |
| ATACCAGG | -0.159 |
| CATGAAAC | 0.0329 |
| CTAATGAA | -0.068 |
| GAGCAGAA | -0.0443 |
| CAAAATAG | -0.277 |
| GCGGACGC | 0.347 |
| ACCCAAAA | -0.148 |
| AATTTCCC | -0.136 |
| AGGGACCA | -0.0539 |

Study 3 — technique: protein-binding microarray; molecule type: double-stranded DNA, one strand shown; matrix: in vitro; concentration: not given; reading: higher = stronger binding
Target: Protein C-ets-1 (ETS1, Homo sapiens, UniProt P14921, residues 1-441, full length assumed)
Setting: k-mer, scored over probes, only values ≥0.25
Target sequence (chain): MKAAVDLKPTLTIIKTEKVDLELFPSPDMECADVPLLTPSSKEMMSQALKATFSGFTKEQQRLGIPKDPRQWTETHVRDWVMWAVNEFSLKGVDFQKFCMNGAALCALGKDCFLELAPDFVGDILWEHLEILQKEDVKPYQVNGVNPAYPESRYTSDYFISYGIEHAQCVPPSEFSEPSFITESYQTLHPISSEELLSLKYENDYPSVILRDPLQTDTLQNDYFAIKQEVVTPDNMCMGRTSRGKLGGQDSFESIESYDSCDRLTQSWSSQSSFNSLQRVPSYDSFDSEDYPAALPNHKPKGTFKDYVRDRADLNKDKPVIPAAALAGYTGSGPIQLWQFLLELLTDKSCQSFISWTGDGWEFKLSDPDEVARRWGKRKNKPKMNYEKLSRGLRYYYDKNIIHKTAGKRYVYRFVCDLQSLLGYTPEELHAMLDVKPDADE
| Strand | E-score |
| --- | --- |
| CTGCGGAA | 0.363 |
| GATCGGAA | 0.345 |
| GCCCCGCC | 0.261 |
| ATGGGAAG | 0.371 |
| GACCATCA | 0.265 |
| CGCCGGCG | 0.327 |
| CAGGAAGC | 0.474 |
| CTGCAGGA | 0.336 |
| ACGGATAT | 0.439 |
| GGATATTA | 0.316 |
| CTGTATCC | 0.365 |
| CCTCCTCC | 0.298 |
| CTCCTTCC | 0.383 |
| GAAATGGA | 0.3 |
| CCCGTCAC | 0.267 |
| CCGGAATA | 0.374 |
| TCGCGGAA | 0.334 |
| ACTTCCCG | 0.452 |
| CACATCCC | 0.397 |

Study 4 — technique: protein-binding microarray; molecule type: double-stranded DNA, one strand shown; matrix: in vitro; concentration: 250 nM; setting: 60-bp whole probe; together with: salmon DNA 0.4 mg/ml; relative to: random background probes; reading: higher = stronger binding; shared flanks, not repeated: GCCTAGCAC … GTCTTGATTCGCTTGACGCTGCTG
Target: Interferon regulatory factor 5, full length, phosphomimetic (IRF5, Homo sapiens, UniProt Q13568-2, residues 1-514, K96S/S451D/S453D/S456D/S462D)
| Strand | log fluorescence |
| --- | --- |
| GACGGTTTCCTTATCCAGACGTGCTAG | 0.757 z-score |
| TTCTCTTTCCTTCTTGATGCGTGCTAG | 1.61 z-score |
| GACGATTTCGGGTATCGTGACGTGCTA | 4 z-score |
| TGAGGTCTCCTTCTCCTTTAGTGCTAG | -0.284 z-score |
| TTGGGACTGGGACTGGGTTAGTGCTAG | -0.447 z-score |
| GACGAACTGGGGATTGGAGACGTGCTA | -0.504 z-score |
| GACGAACTGAGTCTCGAGACGTGCTAG | -0.0427 z-score |
| TACGATTCCAGTTTCGAGACGTGCTAG | 5.43 z-score |
| CTTTCTGTCAGTTTTGAGCTGTGCTAG | 5.26 z-score |
| GACTGTTCCCTTTTCCTGACGTGCTAG | 0.567 z-score |
| GACGGTTTCCTACTGATGACGTGCTAG | 0.446 z-score |
| TTAGGTATCGGGCCTGGGTTAGTGCTA | 1.33 z-score |
| TCACGTTACTTCCTCAAACTGTGCTAG | 0.323 z-score |
| GACGGACTGGGACTGGGGGCGTGCTAG | 0.0966 z-score |
| TCACCTTTTATATTGTAACTGTGCTAG | 0.914 z-score |
| CAACCTTTGTTTTTTTCTATGTGCTAG | 1.13 z-score |
| TCATCTTCTCCTCTAGGACTGTGCTAG | 0.277 z-score |
| TTAGGCTTCGGTTTCGGTTAGTGCTAG | 9.33 z-score |
| TTAAATCTCAGTTTCGATTAGTGCTAG | 10.1 z-score |

For quick reference, copied from above (study 4):
| Strand | log fluorescence |
| --- | --- |
| TTAGGCTTCGGTTTCGGTTAGTGCTAG | 9.33 z-score |
| GACGATTTCGGGTATCGTGACGTGCTA | 4 z-score |
| TCACCTTTTATATTGTAACTGTGCTAG | 0.914 z-score |
| GACGAACTGGGGATTGGAGACGTGCTA | -0.504 z-score |
| CTTTCTGTCAGTTTTGAGCTGTGCTAG | 5.26 z-score |
| TTCTCTTTCCTTCTTGATGCGTGCTAG | 1.61 z-score |
